Results of several laboratories.
Lines come from different studies, so protocols differ. Values joined by “and” are separate records of one study, mostly repeats; a detail may differ. Positions count from the first letter of the parent shown. Numbers after ± are the reported error.
P1: RORγt (mouse); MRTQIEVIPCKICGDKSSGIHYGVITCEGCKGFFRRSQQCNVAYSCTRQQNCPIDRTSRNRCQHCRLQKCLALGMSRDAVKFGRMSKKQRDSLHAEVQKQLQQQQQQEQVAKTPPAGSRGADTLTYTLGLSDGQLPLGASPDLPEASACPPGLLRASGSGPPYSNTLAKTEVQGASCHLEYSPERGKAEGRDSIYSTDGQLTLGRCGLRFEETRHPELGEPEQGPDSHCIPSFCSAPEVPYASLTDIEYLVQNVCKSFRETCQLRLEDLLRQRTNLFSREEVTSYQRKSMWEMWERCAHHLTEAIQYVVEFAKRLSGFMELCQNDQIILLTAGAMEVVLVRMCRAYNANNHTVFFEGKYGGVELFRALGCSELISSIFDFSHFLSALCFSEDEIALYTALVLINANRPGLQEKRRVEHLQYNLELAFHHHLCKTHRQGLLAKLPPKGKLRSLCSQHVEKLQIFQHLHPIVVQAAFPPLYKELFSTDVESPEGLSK
UniProt O15438, sequence (whole entry, looked up): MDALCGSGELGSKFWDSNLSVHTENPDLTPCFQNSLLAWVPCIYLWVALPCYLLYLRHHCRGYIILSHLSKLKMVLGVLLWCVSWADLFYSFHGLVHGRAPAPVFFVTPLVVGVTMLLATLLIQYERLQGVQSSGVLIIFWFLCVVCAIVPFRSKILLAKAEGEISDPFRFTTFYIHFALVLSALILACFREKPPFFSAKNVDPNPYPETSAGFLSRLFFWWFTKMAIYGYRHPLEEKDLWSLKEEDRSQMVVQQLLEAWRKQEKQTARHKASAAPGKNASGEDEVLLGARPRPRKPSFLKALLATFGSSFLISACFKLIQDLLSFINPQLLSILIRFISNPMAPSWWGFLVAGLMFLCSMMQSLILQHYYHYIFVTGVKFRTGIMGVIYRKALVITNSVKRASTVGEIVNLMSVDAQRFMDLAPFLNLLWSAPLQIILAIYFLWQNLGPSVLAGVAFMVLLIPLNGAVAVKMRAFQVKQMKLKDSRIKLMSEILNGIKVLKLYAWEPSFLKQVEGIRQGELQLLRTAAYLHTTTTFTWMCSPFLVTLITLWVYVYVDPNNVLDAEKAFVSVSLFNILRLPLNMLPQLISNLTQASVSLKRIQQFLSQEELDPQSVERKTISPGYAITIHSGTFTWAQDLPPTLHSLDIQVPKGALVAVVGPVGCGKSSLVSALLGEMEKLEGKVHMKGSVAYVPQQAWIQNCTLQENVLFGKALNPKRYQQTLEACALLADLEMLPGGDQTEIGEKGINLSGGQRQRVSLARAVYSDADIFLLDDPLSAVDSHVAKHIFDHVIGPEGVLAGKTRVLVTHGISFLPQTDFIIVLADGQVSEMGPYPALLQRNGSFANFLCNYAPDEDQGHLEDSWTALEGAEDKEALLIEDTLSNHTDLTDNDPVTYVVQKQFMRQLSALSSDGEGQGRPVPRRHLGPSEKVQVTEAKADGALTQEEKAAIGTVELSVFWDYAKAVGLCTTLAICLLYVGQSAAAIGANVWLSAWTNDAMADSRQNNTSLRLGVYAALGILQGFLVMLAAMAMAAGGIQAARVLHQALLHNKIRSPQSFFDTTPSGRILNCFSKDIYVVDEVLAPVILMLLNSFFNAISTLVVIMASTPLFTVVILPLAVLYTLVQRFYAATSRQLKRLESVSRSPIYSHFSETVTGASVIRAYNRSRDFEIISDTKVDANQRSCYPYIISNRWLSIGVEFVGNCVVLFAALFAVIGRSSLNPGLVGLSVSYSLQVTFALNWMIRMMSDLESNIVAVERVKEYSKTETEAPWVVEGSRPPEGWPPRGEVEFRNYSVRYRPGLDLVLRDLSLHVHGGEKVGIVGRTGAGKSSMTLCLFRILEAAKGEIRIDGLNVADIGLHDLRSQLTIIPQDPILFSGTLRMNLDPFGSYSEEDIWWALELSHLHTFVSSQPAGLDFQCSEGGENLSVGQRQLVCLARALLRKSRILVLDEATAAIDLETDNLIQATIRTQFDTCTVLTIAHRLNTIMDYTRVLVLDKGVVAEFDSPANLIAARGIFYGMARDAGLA
UniProt Q92887, sequence (whole entry, looked up): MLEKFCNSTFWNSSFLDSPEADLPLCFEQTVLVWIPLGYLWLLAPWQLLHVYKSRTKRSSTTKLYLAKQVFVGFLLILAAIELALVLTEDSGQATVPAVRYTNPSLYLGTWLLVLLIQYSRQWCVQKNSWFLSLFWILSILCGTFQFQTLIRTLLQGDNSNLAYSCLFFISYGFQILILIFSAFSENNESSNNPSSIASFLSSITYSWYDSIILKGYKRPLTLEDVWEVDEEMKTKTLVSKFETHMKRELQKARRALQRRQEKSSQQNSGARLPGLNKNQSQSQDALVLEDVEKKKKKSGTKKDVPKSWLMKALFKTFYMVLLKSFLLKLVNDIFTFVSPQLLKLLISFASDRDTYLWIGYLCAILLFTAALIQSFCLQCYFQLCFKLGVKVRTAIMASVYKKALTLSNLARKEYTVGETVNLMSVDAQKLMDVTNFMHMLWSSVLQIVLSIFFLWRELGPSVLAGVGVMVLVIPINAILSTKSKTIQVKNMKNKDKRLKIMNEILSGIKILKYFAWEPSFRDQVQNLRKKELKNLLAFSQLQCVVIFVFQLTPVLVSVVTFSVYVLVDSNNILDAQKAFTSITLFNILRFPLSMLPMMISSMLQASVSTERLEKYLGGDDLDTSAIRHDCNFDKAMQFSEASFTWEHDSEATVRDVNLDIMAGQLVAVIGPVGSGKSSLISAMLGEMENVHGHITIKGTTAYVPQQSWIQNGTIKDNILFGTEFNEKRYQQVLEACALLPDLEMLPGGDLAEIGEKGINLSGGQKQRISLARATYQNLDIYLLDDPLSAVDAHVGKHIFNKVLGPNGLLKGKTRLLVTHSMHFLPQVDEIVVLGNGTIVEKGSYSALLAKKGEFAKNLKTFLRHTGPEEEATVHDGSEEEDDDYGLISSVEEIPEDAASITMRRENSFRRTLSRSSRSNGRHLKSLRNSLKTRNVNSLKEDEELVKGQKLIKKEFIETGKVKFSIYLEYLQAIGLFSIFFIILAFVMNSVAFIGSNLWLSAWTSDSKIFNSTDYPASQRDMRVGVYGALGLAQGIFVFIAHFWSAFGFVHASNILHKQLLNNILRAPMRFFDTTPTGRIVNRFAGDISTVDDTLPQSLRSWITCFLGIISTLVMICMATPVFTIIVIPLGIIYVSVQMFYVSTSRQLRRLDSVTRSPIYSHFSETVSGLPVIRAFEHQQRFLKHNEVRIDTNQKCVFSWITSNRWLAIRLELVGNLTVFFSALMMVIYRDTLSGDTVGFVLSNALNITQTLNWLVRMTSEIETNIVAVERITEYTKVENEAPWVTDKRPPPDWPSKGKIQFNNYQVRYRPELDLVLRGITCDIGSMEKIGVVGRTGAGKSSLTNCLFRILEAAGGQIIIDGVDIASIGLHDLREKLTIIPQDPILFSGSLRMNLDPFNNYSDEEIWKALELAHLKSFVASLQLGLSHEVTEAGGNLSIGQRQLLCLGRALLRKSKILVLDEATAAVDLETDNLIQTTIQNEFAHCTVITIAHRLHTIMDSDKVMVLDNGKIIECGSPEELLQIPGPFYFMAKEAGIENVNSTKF
UniProt P22310, sequence (whole entry, looked up): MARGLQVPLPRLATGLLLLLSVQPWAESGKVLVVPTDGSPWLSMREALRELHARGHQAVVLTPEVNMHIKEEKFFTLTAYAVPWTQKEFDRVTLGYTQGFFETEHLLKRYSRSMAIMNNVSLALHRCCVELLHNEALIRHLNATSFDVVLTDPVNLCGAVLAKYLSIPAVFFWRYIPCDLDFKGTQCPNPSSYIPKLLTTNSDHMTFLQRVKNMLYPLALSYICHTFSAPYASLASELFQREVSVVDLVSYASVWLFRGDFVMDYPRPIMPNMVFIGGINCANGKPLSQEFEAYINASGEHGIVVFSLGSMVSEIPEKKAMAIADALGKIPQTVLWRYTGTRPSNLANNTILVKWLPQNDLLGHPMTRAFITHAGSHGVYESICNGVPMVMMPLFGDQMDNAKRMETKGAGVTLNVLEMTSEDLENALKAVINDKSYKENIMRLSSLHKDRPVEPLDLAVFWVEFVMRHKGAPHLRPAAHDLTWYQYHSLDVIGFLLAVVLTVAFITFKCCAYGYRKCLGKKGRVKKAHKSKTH
UniProt O94956, sequence (whole entry, looked up): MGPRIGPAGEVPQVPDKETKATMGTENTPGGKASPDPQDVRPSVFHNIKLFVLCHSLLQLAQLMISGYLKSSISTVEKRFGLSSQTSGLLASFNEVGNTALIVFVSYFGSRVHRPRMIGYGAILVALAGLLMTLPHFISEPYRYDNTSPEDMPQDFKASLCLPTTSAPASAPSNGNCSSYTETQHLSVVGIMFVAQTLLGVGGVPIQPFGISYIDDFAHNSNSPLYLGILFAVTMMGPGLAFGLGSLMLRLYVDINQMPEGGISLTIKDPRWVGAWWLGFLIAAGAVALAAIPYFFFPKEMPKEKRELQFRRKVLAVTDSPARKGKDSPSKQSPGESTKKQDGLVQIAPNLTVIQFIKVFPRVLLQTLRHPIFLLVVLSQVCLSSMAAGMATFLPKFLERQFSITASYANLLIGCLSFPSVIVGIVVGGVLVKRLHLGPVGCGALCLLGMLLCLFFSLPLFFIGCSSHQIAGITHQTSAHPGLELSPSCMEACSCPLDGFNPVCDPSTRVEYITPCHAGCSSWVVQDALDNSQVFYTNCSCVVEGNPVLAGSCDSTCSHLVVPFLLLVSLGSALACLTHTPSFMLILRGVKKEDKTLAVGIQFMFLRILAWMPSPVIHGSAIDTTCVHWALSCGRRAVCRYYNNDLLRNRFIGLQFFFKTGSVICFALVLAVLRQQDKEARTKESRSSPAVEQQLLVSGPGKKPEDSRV

ABCC2 (Homo sapiens, UniProt Q92887)  Vmax (O=C(c1ccc(OCCN2CCCCC2)cc1)c1c(-c2ccc(O)cc2)sc2cc(O[C@@H]3O[C@H](C(=O)O)[C@@H](O)[C@H](O)[C@H]3O)ccc12; steady-state kinetics; Sf9 vesicles; pH 7, 37 °C, not purified, with: ATP): 0.00148 µmol/min/mg
UGT1A4 (Homo sapiens, UniProt P22310)  Vmax (CCCCN1C(=O)c2cccc3c(N4CCN(C)CC4)ccc(c23)C1=O; steady-state kinetics): 9e-05 µmol/min/mg
N#C[C@@H]1CC(F)(F)CN1C(=O)CNC(=O)c1ccnc2ccc(OCCCN3CCN(C(=S)Nc4ccc(C[C@H]5CN(Cc6ccccn6)CCN(Cc6ccccn6)CCN(Cc6ccccn6)CCN5Cc5ccccn5)cc4)CC3)cc12  logD (shake flask; n-octanol/PBS; pH 7.4, 203Pb-labelled): -0.76 ± 0.03
P1 S316A  relative binding (ITCH; GST pull-down; relative to: unchanged protein): 0.6
ABCC3 (Homo sapiens, UniProt O15438)  Vmax (O=C(c1ccc(OCCN2CCCCC2)cc1)c1c(-c2ccc(O[C@@H]3O[C@H](C(=O)O)[C@@H](O)[C@H](O)[C@H]3O)cc2)sc2cc(O[C@@H]3O[C@H](C(=O)O)[C@@H](O)[C@H](O)[C@H]3O)ccc12; steady-state kinetics; Sf9 vesicles; pH 7, 37 °C, not purified, with: ATP): 0.000278 µmol/min/mg
CC(C)C[C@H](NC(=O)[C@H](Cc1ccc(O)cc1)NC(=O)[C@@H](CCCNC(=N)N)NC(=O)[C@@H](CO)NC(=O)[C@H](Cc1ccccc1)NC(=O)[C@H](CC1CCCCC1)NC(=O)[C@H](CC(=O)O)NC(=O)CN1CCN(CC(=O)O)CCN(CC(=O)O)CCN(CC(=O)O)CC1)C(=O)N[C@@H](Cc1c[nH]c2ccccc12)C(=O)N[C@@H](CO)C(=O)O [copper-64 labelled]  activity concentration (human, bone; concentration not given, 24 h): 108 Bq/mL and 95.7 Bq/mL and 60.3 Bq/mL and 125 Bq/mL and 107 Bq/mL and 139 Bq/mL
SLCO2B1 (Homo sapiens, UniProt O94956)  Vmax (O=C(c1ccc(OCCN2CCCCC2)cc1)c1c(-c2ccc(O)cc2)sc2cc(O[C@@H]3O[C@H](C(=O)O)[C@@H](O)[C@H](O)[C@H]3O)ccc12; steady-state kinetics; HEK293 cells; pH 7.4, 37 °C): 0.000155 µmol/min/mg
BICD2-miniTurboID C-terminus R694C (Homo sapiens)  relative binding (CSPP1 (Homo sapiens); proximity biotinylation, western blot; 500 µM, 40 minutes, read off a plot; relative to: unchanged protein, higher = more binding): 2.8
CCCC[C@H](NC(=O)COCCOCCNC(=O)CN1CCN(CC(=O)O)CCN(CC(=O)O)CC1)C(=O)N[C@H]1CC(=O)NCCCC[C@@H](C(N)=O)NC(=O)[C@H](Cc2c[nH]c3ccccc23)NC(=O)[C@H](CCCNC(=N)N)NC(=O)[C@@H](Cc2ccccc2)NC(=O)[C@H](Cc2c[nH]cn2)NC1=O [technetium-99m labelled]  tissue uptake (C57 mouse, bone; intravenous, 0.037 MBq, 0.5 h): 0.73 ± 0.55 %ID/g
AGCTCCAGAAGATAAATTACAGGGGTGGGTGGGAGGGTTTTTGTAGTTAGAGGAAGGGGAGCTGTGGTCTTAACACCAACTAGGATACTATGACCCC (ssDNA)  Kd (TAGLN2 1-220 (Homo sapiens); MST; single-stranded DNA): 18 ± 1 nM
CC(C)C[C@H](NC(=O)[C@@H](CCCCNC(=O)[C@@H](Cc1ccccc1)NC(=O)CCCCCNC(=O)CN1CCN(CC(=O)O)CCN(CC(=O)O)CCN(CC(=O)O)CC1)NC(=O)[C@H](Cc1ccc(O)cc1)NC(=O)[C@H](CO)NC(=O)[C@H](Cc1c[nH]c2ccccc12)NC(=O)[C@H](Cc1c[nH]cn1)NC(=O)[C@@H]1CCC(=O)N1)C(=O)N[C@@H](CCCNC(=N)N)C(=O)N1CCC[C@H]1C(=O)NCC(N)=O [indium-111 labelled]  tissue uptake (female athymic nude mice, muscle; intravenous, 0.037 MBq, 1 h): 0.04 ± 0.03 %ID/g
BICD2-miniTurboID C-terminus N188T (Homo sapiens)  relative binding (CSPP1 (Homo sapiens); proximity biotinylation, western blot; 500 µM, 40 minutes, read off a plot; relative to: unchanged protein, higher = more binding): 2
CCCC[C@H](NC(=O)CCCCCCCNC(=O)CN1CCN(CC(=O)O)CCN(CC(=O)O)CC1)C(=O)N[C@H]1CC(=O)NCCCC[C@@H](C(N)=O)NC(=O)[C@H](Cc2c[nH]c3ccccc23)NC(=O)[C@H](CCCNC(=N)N)NC(=O)[C@@H](Cc2ccccc2)NC(=O)[C@H](Cc2c[nH]cn2)NC1=O [technetium-99m labelled]  tissue uptake (C57 mouse, intestine; intravenous, 0.037 MBq, 0.5 h): 21.2 ± 2.7 %ID

For quick reference, copied from above:
BICD2-miniTurboID C-terminus R694C (Homo sapiens)  relative binding (CSPP1 (Homo sapiens); proximity biotinylation, western blot; 500 µM, 40 minutes, read off a plot; relative to: unchanged protein, higher = more binding): 2.8
CCCC[C@H](NC(=O)COCCOCCNC(=O)CN1CCN(CC(=O)O)CCN(CC(=O)O)CC1)C(=O)N[C@H]1CC(=O)NCCCC[C@@H](C(N)=O)NC(=O)[C@H](Cc2c[nH]c3ccccc23)NC(=O)[C@H](CCCNC(=N)N)NC(=O)[C@@H](Cc2ccccc2)NC(=O)[C@H](Cc2c[nH]cn2)NC1=O [technetium-99m labelled]  tissue uptake (C57 mouse, bone; intravenous, 0.037 MBq, 0.5 h): 0.73 ± 0.55 %ID/g
